Results gathered from unrelated publications.
Compare with care: the assays were run in different laboratories. Numbers after ± are the reported error.
ZBTB11/CRBN: ZBTB11/CRBN (Homo sapiens, UniProt O95625+Q96SW2)
Chain of UniProt O95625 (whole entry, looked up): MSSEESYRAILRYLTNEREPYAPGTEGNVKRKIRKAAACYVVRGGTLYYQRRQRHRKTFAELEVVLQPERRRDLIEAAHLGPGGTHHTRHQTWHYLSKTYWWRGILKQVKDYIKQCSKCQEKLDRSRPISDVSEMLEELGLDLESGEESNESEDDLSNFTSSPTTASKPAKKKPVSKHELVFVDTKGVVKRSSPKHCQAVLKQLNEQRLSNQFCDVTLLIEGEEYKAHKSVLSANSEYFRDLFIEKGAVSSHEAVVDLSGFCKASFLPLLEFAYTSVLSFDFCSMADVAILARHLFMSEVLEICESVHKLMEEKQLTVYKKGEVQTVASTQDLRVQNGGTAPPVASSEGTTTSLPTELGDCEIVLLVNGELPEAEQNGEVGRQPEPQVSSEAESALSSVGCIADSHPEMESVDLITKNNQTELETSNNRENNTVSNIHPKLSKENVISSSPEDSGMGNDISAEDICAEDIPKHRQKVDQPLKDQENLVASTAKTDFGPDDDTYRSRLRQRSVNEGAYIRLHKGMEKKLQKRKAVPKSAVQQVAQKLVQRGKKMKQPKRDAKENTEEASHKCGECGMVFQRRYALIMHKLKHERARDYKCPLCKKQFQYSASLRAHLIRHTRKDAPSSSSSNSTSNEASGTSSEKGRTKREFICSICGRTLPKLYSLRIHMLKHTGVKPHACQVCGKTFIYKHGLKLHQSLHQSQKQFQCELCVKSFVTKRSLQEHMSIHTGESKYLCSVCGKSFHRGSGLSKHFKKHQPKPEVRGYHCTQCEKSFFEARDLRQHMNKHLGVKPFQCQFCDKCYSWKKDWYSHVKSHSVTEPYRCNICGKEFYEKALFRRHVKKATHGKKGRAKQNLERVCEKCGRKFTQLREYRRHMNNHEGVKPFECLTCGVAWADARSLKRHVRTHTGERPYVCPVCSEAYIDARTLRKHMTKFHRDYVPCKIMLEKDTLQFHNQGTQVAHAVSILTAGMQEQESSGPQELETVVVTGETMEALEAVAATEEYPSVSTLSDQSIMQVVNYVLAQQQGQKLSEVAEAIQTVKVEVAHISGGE
Chain of UniProt Q96SW2 (whole entry, looked up): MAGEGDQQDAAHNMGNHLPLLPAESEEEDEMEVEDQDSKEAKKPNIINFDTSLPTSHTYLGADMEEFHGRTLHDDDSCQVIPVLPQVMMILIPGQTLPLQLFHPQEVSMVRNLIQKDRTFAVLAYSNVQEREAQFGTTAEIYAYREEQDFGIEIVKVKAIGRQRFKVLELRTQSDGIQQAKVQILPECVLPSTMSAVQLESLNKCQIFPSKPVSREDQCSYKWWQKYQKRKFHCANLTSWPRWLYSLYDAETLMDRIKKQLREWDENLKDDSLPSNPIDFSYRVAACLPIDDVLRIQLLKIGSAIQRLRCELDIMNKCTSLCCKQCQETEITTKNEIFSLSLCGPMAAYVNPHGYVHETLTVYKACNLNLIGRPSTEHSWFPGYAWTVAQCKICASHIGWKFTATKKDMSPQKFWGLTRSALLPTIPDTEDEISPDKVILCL
Alpha-carbonic anhydrase: Alpha-carbonic anhydrase (Enterococcus faecium, UniProt Q3XYE8)
USP49 ZnF-UBD domain: Ubiquitin carboxyl-terminal hydrolase 49, ZnF-UBD domain (USP49, Homo sapiens, UniProt Q70CQ1)
Chain of UniProt Q70CQ1 (whole entry, looked up): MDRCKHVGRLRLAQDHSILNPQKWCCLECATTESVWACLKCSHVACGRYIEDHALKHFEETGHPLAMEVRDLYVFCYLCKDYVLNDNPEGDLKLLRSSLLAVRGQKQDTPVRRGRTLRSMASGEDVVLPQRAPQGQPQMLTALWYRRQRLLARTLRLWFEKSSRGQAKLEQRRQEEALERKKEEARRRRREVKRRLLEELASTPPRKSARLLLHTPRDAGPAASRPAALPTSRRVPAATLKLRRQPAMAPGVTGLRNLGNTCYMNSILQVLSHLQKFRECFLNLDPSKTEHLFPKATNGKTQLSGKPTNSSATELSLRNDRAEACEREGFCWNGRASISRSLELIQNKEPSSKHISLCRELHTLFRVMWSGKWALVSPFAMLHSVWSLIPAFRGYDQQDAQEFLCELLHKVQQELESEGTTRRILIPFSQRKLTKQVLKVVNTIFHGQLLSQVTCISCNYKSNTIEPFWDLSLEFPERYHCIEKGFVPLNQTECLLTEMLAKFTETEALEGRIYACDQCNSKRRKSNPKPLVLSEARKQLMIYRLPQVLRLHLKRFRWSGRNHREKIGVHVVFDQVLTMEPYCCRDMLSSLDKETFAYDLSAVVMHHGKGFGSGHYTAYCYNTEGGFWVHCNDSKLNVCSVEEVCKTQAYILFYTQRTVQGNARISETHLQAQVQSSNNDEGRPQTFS
Chain of UniProt Q53GS9 (whole entry, looked up): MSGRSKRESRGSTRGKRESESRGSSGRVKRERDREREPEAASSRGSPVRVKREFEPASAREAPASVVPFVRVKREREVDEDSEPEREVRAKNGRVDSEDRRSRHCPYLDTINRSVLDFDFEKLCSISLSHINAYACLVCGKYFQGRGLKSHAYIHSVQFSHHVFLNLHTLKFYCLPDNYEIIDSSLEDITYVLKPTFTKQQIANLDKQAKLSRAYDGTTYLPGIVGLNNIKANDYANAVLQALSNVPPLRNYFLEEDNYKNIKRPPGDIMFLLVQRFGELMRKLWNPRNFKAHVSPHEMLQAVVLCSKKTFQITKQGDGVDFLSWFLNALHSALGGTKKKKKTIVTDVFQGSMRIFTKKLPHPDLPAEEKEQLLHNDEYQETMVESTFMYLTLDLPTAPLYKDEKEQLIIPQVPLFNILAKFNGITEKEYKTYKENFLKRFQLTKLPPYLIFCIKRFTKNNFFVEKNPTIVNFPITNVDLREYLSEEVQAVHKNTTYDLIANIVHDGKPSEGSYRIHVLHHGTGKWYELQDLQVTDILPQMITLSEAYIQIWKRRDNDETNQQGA
Chain of UniProt Q9UNQ0 (whole entry, looked up): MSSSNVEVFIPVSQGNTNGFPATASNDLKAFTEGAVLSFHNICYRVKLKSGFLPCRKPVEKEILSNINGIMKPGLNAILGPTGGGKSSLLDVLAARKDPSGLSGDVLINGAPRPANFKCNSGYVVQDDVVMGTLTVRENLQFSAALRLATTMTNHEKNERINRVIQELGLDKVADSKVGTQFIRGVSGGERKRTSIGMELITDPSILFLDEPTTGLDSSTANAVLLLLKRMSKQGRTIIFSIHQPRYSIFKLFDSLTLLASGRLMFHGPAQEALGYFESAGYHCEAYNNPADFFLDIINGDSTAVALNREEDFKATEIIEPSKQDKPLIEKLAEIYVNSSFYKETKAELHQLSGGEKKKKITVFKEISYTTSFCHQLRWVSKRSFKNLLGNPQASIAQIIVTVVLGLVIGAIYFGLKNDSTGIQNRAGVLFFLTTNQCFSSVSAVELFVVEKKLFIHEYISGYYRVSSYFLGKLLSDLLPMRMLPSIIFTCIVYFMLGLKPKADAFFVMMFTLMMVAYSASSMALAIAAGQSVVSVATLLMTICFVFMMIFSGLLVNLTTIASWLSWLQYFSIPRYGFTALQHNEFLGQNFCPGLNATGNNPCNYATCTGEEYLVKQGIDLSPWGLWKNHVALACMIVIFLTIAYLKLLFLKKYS
Chain of UniProt P51617 (whole entry, looked up): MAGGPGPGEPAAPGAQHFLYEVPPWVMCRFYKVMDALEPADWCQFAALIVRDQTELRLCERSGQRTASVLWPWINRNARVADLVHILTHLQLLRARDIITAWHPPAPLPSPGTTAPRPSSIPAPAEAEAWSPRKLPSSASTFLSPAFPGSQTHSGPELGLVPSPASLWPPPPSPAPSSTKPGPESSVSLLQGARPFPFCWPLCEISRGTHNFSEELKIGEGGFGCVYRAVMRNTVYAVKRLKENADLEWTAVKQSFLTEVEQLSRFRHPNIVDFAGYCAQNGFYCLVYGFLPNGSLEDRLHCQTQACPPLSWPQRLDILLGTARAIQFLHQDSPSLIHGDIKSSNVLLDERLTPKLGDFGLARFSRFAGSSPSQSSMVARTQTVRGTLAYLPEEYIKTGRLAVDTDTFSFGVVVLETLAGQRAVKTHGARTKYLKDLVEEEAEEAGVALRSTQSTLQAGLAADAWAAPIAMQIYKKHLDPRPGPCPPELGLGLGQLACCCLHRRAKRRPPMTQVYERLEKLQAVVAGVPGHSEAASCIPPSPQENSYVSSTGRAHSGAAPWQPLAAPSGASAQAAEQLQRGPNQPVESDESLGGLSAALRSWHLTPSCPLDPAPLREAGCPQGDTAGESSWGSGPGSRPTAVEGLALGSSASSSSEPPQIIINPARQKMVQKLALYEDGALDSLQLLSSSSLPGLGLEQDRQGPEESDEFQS

Structure (SMILES) | target or system | test | system | conditions | scale | quantity | value
CN(CCc1ccc(Cl)c(C(F)(F)F)c1)C1(c2cccc(NC3=CC(=O)N(C4CCC(=O)NC4=O)C3=O)c2)CCC1 (stereo not drawn) | ZBTB11/CRBN | degrader | human cells | – | – | DC50 | 1.98 µM
NS(=O)(=O)c1nnc(NC(=O)C2CCC3(CCCCC3)CC2)s1 | Alpha-carbonic anhydrase | CO2 hydration, inhibitor, stopped-flow kinetics | – | – | – | Ki | 0.0493 µM
Cc1cc(Nc2ccc(S(F)(F)(F)(F)F)cc2)n2nc(C(C)(F)F)nc2n1 | Plasmodium falciparum | 12-lead ECG | malaria patients | oral, 250 mg, increase above 60 ms | – | patients with QTcF increase | 0%
CN1CCN(c2ccc(Nc3ncc4cc(C#N)c(=O)n(C5CCCC5)c4n3)cc2)CC1 | SYK (Homo sapiens, UniProt P43405) | – | – | – | – | IC50 | > 10 µM
CC(C)(NCCc1ccc(C(F)(F)F)c(Cl)c1)c1cccc(NC2=CC(=O)N(C3CCC(=O)NC3=O)C2=O)c1 (stereo not drawn) | ZBTB11/CRBN | degrader | human cells | – | – | DC50 | 0.14 ± 0.07 µM
N=C(N)NCCC[C@@H](NC(=O)CCOCCOCCNC(=O)[C@H](CCCCNC(=O)CC[C@H](NC(=O)c1ccc(NCc2cnc3nc(N)[nH]c(=O)c3n2)cc1)C(=O)O)NC(=O)CO/N=C/[C@H](F)[C@@H](O)[C@H](O)[C@H](O)CO)C(=O)NCC(=O)N[C@H](CC(=O)O)C(N)=O [fluorine-18 labelled] | – | – | female nude mouse, kidney | intravenous, 1 µg, 0.75 h | – | tissue uptake | 3.15 ± 0.72 %ID/g
O=C(O)CC1Oc2ccccc2NC1=O (stereo not drawn) | USP49 ZnF-UBD domain | – | – | – | – | Kd | > 1000 µM
C[C@]12CCCN1CC1=NNC(=O)c3cc(F)cc4[nH]c2c1c34 | ABCG2 (Homo sapiens, UniProt Q9UNQ0) | substrate | – | 0.5 µM | baseline: ATP over AMP | uptake ratio | 0.83
CC(C)C[C@H](NC(=O)C[C@H](O)[C@H](CC(C)C)NC(=O)[C@H](Cc1c[nH]cn1)NC(=O)CNC(=O)[C@@H](NC(=O)[C@H](C)NC(=O)[C@H](Cc1c[nH]c2ccccc12)NC(=O)[C@H](CCC(N)=O)NC(=O)[C@@H](Cc1ccccc1)NC(=O)COCCOCCNC(=O)CCC(C(=O)O)N1CCN(CC(=O)O)CCN(CC(=O)O)CCN(CC(=O)O)CC1)C(C)C)C(N)=O (stereo partly drawn) [lutetium-177 labelled] | – | – | BALB/c nu/nu mice, salivary glands | 100 pmol, 1 h, added: PA 300 µg | – | tissue uptake | 0.2 ± 0.1 %ID/g
CC[C@@H]1[C@H](F)C(=O)N[C@@H]1COc1nccc2cc(C(N)=O)c(OC)cc12 | IRAK1 (Homo sapiens, UniProt P51617) | ATP-site probe binding, ActivX profiling | THP-1 cell lysate | Lys2 site | – | IC50 | 3.2 µM
O=C(O)CCc1cnn(-c2ccccc2)c1 | USP49 ZnF-UBD domain | – | – | – | – | Kd | 661 µM
NS(=O)(=O)c1nnc(NC(=O)CN2CC3CCC(C2)O3)s1 | Alpha-carbonic anhydrase | CO2 hydration, inhibitor, stopped-flow kinetics | – | – | – | Ki | 0.0087 µM
O=C(O)CCc1ccccc1 | Ubiquitin carboxyl-terminal hydrolase 39, ZnF-UBD domain (Homo sapiens, UniProt Q53GS9) | – | – | – | – | Kd | > 1000 µM
Cc1ccccc1CCC(=O)Nc1nnc(S(N)(=O)=O)s1 | Alpha-carbonic anhydrase | CO2 hydration, inhibitor, stopped-flow kinetics | – | – | – | Ki | 0.0164 µM
COCCOCCOCCOc1ccc(C#Cc2cc(CN3CCN(Cc4cc(C#Cc5ccc(OCCOCCOCCOC)cc5)cc(C(=O)O)n4)CCN(Cc4cc(SC[C@H](N)C(=O)NC[C@H]5CC[C@H](C(=O)N[C@@H](Cc6ccc7ccccc7c6)C(=O)NCCCC[C@H](NC(=O)N[C@@H](CCC(=O)O)C(=O)O)C(=O)O)CC5)cc(C(=O)O)n4)CC3)nc(C(=O)O)c2)cc1 [yttrium-86 labelled] | – | – | mouse, kidneys | intravenous, 6 h | – | tissue uptake | 28.4 ± 0.03 %ID/g

For quick reference, copied from above:
Structure (SMILES) | target or system | test | system | conditions | scale | quantity | value
Cc1ccccc1CCC(=O)Nc1nnc(S(N)(=O)=O)s1 | Alpha-carbonic anhydrase | CO2 hydration, inhibitor, stopped-flow kinetics | – | – | – | Ki | 0.0164 µM
COCCOCCOCCOc1ccc(C#Cc2cc(CN3CCN(Cc4cc(C#Cc5ccc(OCCOCCOCCOC)cc5)cc(C(=O)O)n4)CCN(Cc4cc(SC[C@H](N)C(=O)NC[C@H]5CC[C@H](C(=O)N[C@@H](Cc6ccc7ccccc7c6)C(=O)NCCCC[C@H](NC(=O)N[C@@H](CCC(=O)O)C(=O)O)C(=O)O)CC5)cc(C(=O)O)n4)CC3)nc(C(=O)O)c2)cc1 [yttrium-86 labelled] | – | – | mouse, kidneys | intravenous, 6 h | – | tissue uptake | 28.4 ± 0.03 %ID/g
